Results gathered from unrelated publications.
Numbered parts are unrelated; each lists some results of a single study. Substitutions count along the parent as printed.

Series 1
Target: Sal-like protein 4, full length isoform B (SALL4, Homo sapiens, UniProt Q9UJQ4-2, residues 1-616)
Method: universal PBM
Molecule type: double-stranded DNA, one strand shown
Matrix: in vitro
Tested at: not given
Setting: 8-mer, flanks averaged, mean of replicates
Direction: higher = stronger binding
Construct (chain): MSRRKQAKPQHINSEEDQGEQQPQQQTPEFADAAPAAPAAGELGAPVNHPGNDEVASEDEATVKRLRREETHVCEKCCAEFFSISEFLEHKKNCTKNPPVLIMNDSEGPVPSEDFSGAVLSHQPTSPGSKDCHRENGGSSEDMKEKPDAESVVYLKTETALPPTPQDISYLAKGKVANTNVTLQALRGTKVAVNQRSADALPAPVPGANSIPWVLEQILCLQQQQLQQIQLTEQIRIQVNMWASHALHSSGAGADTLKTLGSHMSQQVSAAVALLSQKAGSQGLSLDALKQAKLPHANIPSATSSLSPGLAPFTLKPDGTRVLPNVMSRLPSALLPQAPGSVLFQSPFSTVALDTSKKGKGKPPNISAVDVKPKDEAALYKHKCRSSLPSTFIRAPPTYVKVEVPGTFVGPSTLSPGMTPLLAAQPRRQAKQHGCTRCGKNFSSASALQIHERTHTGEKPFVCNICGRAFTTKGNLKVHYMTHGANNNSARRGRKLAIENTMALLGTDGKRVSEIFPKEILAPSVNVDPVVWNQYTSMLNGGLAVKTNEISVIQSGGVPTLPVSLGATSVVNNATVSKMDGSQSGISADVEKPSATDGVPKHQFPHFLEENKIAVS
`ATGTCTGG` gave an E-score of 0.0593.
With `AGTCAGAC` the E-score was -0.0917.
With `TAGAGACA` the E-score was 0.0572.
The E-score of `ATAACTGA` is reported as 0.2.
For `CGGTGTTA`, the E-score was -0.0265.
For `TATGTCCA`, the E-score was 0.00099.
With `ACCTGCGC` the E-score was -0.198.
The E-score of `AACCGCAG` is reported as -0.236.
`ATGGGGCG` has an E-score of -0.137.
For `ACGTGTGG`, the E-score was 0.00798.
For `CGGACTGA`, the E-score was -0.272.
`AGTTGGGC` gave an E-score of -0.119.
`GAACGGCA` gave an E-score of -0.0477.
`CGAGATCC` gave an E-score of -0.242.
With `GTAAGCCA` the E-score was -0.116.
For `TAGATCAA`, the E-score was 0.131.
With `AAACACAC` the E-score was 0.0258.
For `CACGTCGC`, the E-score was -0.155.
`CGTTACTC` has an E-score of -0.115.
With `TGCTGAAA` the E-score was 0.00521.
The E-score of `GAGTGAGA` is reported as -0.0833.
The E-score of `ACGACTCG` is reported as -0.257.

Series 2
Target: RING finger protein unkempt homolog, zinc fingers 1-6, GST-SBP tag (UNK, Homo sapiens, UniProt Q9C0B0, residues 30-357)
Method: RNA Bind-n-Seq
Molecule type: RNA
Matrix: in vitro
Tested at: not given
Setting: RNA with constant flanks, human and mouse sites, ends assumed
Reference: input RNA pool
Direction: higher = stronger binding
All sequences stand within: GGGAGUUCUACAGUCCGACGAUC … CAACAGAGGAUUGAGCAUCA
Target sequence (chain): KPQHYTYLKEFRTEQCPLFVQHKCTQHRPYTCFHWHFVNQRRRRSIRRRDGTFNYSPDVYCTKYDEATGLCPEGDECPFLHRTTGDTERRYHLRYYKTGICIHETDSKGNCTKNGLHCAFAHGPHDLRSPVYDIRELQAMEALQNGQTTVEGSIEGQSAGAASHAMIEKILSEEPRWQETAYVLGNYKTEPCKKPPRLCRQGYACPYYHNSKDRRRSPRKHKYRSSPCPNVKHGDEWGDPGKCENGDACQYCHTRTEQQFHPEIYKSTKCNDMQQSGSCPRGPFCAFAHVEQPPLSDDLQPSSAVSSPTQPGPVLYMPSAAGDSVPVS
`AAGUCCUCAUUGACAAUUCAGUUUGUUGAAGGCCAAUUUGUUGAUUCCUACGAUCCAACCAUAGAGAACACGUUCACCAAGUUGAUCACGGUAAAUGGUCAAGAGUAUCAUCUUCAGCUU` has a bound/input enrichment of 0.154 ratio.
`UGUGUUAUUCGUUGUUUAGUGAAGAAGAGGGCUCUUAUUGCAGGAGGUGGUGCUCCAGAAAUAGAGUUGGCCCUACGAUUAACUGAAUAUUCACGAACACUGAGUGGUAUGGAAUCCUAC` has a bound/input enrichment of 0.0872 ratio.
With `CCUUAUCACGUGUGUAAGGGGAAAAAGGUUUAAACAAGUCUCUUAAGUGGUGUUUCCUCACCGAUGGAGAAUUACUUCCAAGCAGAAGCUUACAACCUGGACAAGGUGUUAGAUGAAUUU` the bound/input enrichment was 0.182 ratio.
With `CAUUAUUACUCCAUCACUAUUAAUUACCGGAAAAAUGAACUGGAACAGAAGAUGCUGUUAAAUUUGCAUAAGAAGAGUUGGAUGGAAGGAUUGACACUUCAGGACUACAGUGAACACUGU` the bound/input enrichment was 0.277 ratio.
`GCACGCCUUGCUAGUUUAAUGAAUCUUGGAAUGAGUUCUUCAUUGAAUCAACAAGGAGCUCAUAGUGCACUGUCUUCUGCUAGUACUUCUUCCCAUAAUUUGCAGUCUAUAUUUAACAUU` has a bound/input enrichment of 0.628 ratio.
`UAUAUAAUGGACAGCUAACGGAACAAUAUAAUCACCACAAUGCAGCUAGGAUAGUGUUGCGGCUAUAAUUUUGUGUUUUUUUUUUUUAAUUGUCUAGUCUUAAAUUUGUACAUCUUGUAU` has a bound/input enrichment of 24 ratio.
`UCCAAAGAAGUAUUAUCCCAAGGACAACAGCAGGGAGCCCCAAAUGCUGGGGUUAUAACUAAUGCACCUUUGCAGAGACAUUUUAAACCAAAGAAGGUGGAGUGUUUGGAAGUUGAAACU` has a bound/input enrichment of 0.232 ratio.
For `AAGCAGCAGUGGCUGACGCUCUGCUGUUAGGAGACGCCAGGAGCAAGAAGAAGCCUGUGAGAAGGAGAUACGAGCCCUAUGGAAUGUACUCUGAUGAUGAUGCCAACAGUGAUGCCUCCA`, the bound/input enrichment was 0.113 ratio.

Series 3
Target: CCND1, cyclin fold, Cln2 fusion (human)
Method: yeast growth competition, sequencing
Matrix: yeast
Setting: weak parent motif
Reference: not given
Direction: higher = stronger binding
Starting sequence: ORC1 docking peptide (human); PRARKRLELGNLG
For `PRARKRLRLGNLG [E8R]`, “normalised enrichment score” read -1.08.
`PRARKRLNLGNLG [E8N]`: “normalised enrichment score” -0.358.
Under “normalised enrichment score”, `PRARKRLELGNHG [L12H]` is recorded as 0.136.
`DRARKRLELGNLG [P1D]` — result for “normalised enrichment score”: 0.605.
`PRAMKRLELGNLG [R4M]`: “normalised enrichment score” 0.118.
`PRARKRLERGNLG [L9R]` — result for “normalised enrichment score”: 0.0419.
`PRARKRLELGNPG [L12P]` — result for “normalised enrichment score”: 0.204.
For `CRARKRLELGNLG [P1C]`, “normalised enrichment score” read 0.776.
Under “normalised enrichment score”, `PCARKRLELGNLG [R2C]` is recorded as -0.101.
`PRARKRAELGNLG [L7A]` — result for “normalised enrichment score”: -0.142.
Under “normalised enrichment score”, `PRARKRLELGNLP [G13P]` is recorded as -0.241.
`PRARKRLELDNLG [G10D]` — result for “normalised enrichment score”: 0.604.
Under “normalised enrichment score”, `PRARCRLELGNLG [K5C]` is recorded as -0.22.
`KRARKRLELGNLG [P1K]`: “normalised enrichment score” 0.368.
`PRARKRLELGFLG [N11F]` — result for “normalised enrichment score”: 0.245.
For `PRARKRLEIGNLG [L9I]`, “normalised enrichment score” read -0.146.
`PRARKRLELLNLG [G10L]`: “normalised enrichment score” 0.767.
Under “normalised enrichment score”, `PRARKRLESGNLG [L9S]` is recorded as 0.25.
For `PRARNRLELGNLG [K5N]`, “normalised enrichment score” read 0.133.
Under “normalised enrichment score”, `PRARKFLELGNLG [R6F]` is recorded as 0.509.
`PRFRKRLELGNLG [A3F]`: “normalised enrichment score” -0.113.
Under “normalised enrichment score”, `PRARKRLELGVLG [N11V]` is recorded as 0.27.
`PRSRKRLELGNLG [A3S]`: “normalised enrichment score” 0.255.
Under “normalised enrichment score”, `PRARKRTELGNLG [L7T]` is recorded as -0.767.
Under “normalised enrichment score”, `PFARKRLELGNLG [R2F]` is recorded as -0.288.

Series 4
Target: RNA binding protein fox-1 homolog 2, RRM domain, GST-SBP tag (RBFOX2, Homo sapiens, UniProt O43251-10, residues 100-194)
Method: RNA Bind-n-Seq
Molecule type: RNA
Matrix: in vitro
Tested at: 365 nM
Setting: natural RNA segment, single round, ends assumed
Reference: no-protein control
Direction: higher = stronger binding
All sequences stand within: GGGAGUUCUACAGUCCGACGAUC … UGGAAUUCUCGGGUGCCAA
Construct (chain): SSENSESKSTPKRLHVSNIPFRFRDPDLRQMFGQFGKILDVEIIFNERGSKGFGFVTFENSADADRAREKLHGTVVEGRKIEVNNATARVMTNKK
`UCUGGUUUGGAUUUUUUUUUCCUUCUUUGUUUUAACAAAUGGAUCCAGGAUGGAUAAAUCCACCGAGAUAAGGGUUUUGGUCACUGUCUCCACCUCAGUUCCUCAGGGCU`: “RBNS enrichment (R)” 0.377.
`CCCGUCUUGUGGGGGAGUUUUCUUGCCUAAGAUUUAAUGCAGUUCUCUCUACCCAGUGGGCGCUGCUGUUAAGGGGCCAUCUGCUGAAAACGUUUCCCCAGGCCCUGCUG` — result for “RBNS enrichment (R)”: 0.222.
`CCACCGUCCCACUCGGUGACCCCAGGCCCCUCCGGCGCGGGAUGGCGCCCCAGGUCUCCCCUACUCCGCUCACCCCGCAGUUAAUGGCAAACGAAUAAAUAAAUGAGGCG` — result for “RBNS enrichment (R)”: 0.41.
For `UGUACUUUCCUACCCCAAGAGGAAGUUUUCUGAAAUAAGAUUUAAAAACAAAACAAAAAAAACACUUAAUAUUUCAGACUGUUACAGGAAACACCCUUUAGUCUGUCAGU`, “RBNS enrichment (R)” read 0.434.
`GAAGGCCCAGCCCUUGACUCUGAGACACAUUUGAAUUUUUUCUUUCCCAUCAAAUGGCAUUAACAAGAUUGGGCAAAGAUGAGUCCCUCAAAUUUCUGUGUUUUUUGUUU`: “RBNS enrichment (R)” 0.522.
`AAACCACUAAAAUUAAGCUCUUACUACUUAGUCAACUAUCCUCAGCUGUAUUCGUACUCAAUUGUCAGUAUGGCACAGAUUACUGUAUUAAAAUAUUCUCCUUUCGUCUU` — result for “RBNS enrichment (R)”: 0.448.
Under “RBNS enrichment (R)”, `ACCCGGCAGCUUCUGGAGUUUGUCAGUGGAGGCAGAGGGGAUCCGGCCAGGCCCCUCUGUCCAGAAGGAGCUGCCCUGAGGACCAUCUUAGCGGCCCUGUCCUCUUUUUC` is recorded as 1.08.
`GAGAAAAGGAUGUGACUGCCCAUCCUAGGUAUACUGGCUGUCUCCCUCAGUGGAGAAGAUGAGAAGAACAUCUUGGGGUGCUUUUCUGUUAUAGGGUCCCCUCCCUGACG`: “RBNS enrichment (R)” 0.459.
